Measurements from different studies.
Protocols differ between the studies behind these lines.
Cell line: NCI-H226

CCCN1CCN(c2ccc3[nH]c(-c4ccc5[nH]c(-c6cc(OC)c(OC)c(OC)c6)nc5c4)nc3c2)CC1  growth percent (cell growth, NCI-60 SRB; 10 µM): 81.7%
C#C[C@@]1(O)[C@@H](CO)O[C@@H](n2cc(I)c3c(N)ncnc32)[C@@H]1O  TGI (SRB; NCI-60 screen): > 100 µM
S=C([S][Au-][P+](CCCCCC[P+]([Au-][S]C(=S)n1cccn1)(c1ccccc1)c1ccccc1)(c1ccccc1)c1ccccc1)n1cccn1  log10 TGI (cell growth, NCI-60 screen; non-small cell lung cancer): > -4
CCCc1n(Cc2ccc3ccccc3c2)c2ccccc2[n+]1Cc1ccc2ccccc2c1.[Br-]  TGI (NCI60 five-dose screen): 1.8 µM
C#C[C@@]1(O)[C@@H](CO)O[C@@H](n2cc(F)c3c(N)ncnc32)[C@@H]1O  TGI (SRB; NCI-60 screen): 2.63 µM
O=C(Nc1nnc2n3c(nc(-c4ccc(Cl)cc4)c1-2)SCC3=O)c1ccccc1  cell growth (SRB; 10 µM, NCI60 single-dose screen; relative to: untreated): 79.1%
CCCCN1CCN(c2ccc3[nH]c(-c4ccc5[nH]c(-c6cc(OC)c(OC)c(OC)c6)nc5c4)nc3c2)CC1  growth percent (cell growth, NCI-60 SRB; 10 µM): 77.7%
CCCCCCCCCCCCCCCCCCOc1ccc(CC(=O)OCC[N+]2(C)CCOCC2)cc1  growth inhibition (SRB; 10 µM): < 0%
Cc1cc(-c2ccccc2)n(-c2nc(-c3ccc(Cl)cc3)c3c(NC(=O)c4ccccc4)nnc-3[nH]2)n1  cell growth (SRB; 10 µM, NCI60 single-dose screen; relative to: untreated): 93.8%
COCCOCCOCc1n(Cc2ccc3ccccc3n2)c2ccccc2[n+]1Cc1ccc2ccccc2c1.[Br-]  TGI (NCI60 five-dose screen): 4.83 µM
COc1ccc(OC)c(-c2nc3ccc(-c4nc5ccc(N6CCN(C)CC6)cc5[nH]4)cc3[nH]2)c1  growth percent (cell growth, NCI-60 SRB; 10 µM): 103%
Cc1cc(=O)[nH]n1-c1nc(-c2ccc(Cl)cc2)c2c(NC(=O)c3ccccc3)nnc-2[nH]1  cell growth (SRB; 10 µM, NCI60 single-dose screen; relative to: untreated): 94.5%
Cn1cncc1C1=CN(c2ncnc3[nH]cnc23)CCS1  GI50 (lung cancer): 14.8 µM
CCOC(=O)CSc1nc(-c2ccc(Cl)cc2)c2c(NC(=O)c3ccccc3)nnc-2[nH]1  cell growth (SRB; 10 µM, NCI60 single-dose screen; relative to: untreated): 91%
Cc1n(Cc2ccc3ccccc3c2)c2ccccc2[n+]1Cc1ccc2ccccc2c1.[Br-]  TGI (NCI60 five-dose screen): 3.2 µM

A few entries again:
CCCN1CCN(c2ccc3[nH]c(-c4ccc5[nH]c(-c6cc(OC)c(OC)c(OC)c6)nc5c4)nc3c2)CC1  growth percent (cell growth, NCI-60 SRB; 10 µM): 81.7%
O=C(Nc1nnc2n3c(nc(-c4ccc(Cl)cc4)c1-2)SCC3=O)c1ccccc1  cell growth (SRB; 10 µM, NCI60 single-dose screen; relative to: untreated): 79.1%
